Measured values pooled from the literature.
Lines come from different studies, so protocols differ. ± marks the error that the study gave.
UniProt Q8IVT5, sequence (whole entry, looked up): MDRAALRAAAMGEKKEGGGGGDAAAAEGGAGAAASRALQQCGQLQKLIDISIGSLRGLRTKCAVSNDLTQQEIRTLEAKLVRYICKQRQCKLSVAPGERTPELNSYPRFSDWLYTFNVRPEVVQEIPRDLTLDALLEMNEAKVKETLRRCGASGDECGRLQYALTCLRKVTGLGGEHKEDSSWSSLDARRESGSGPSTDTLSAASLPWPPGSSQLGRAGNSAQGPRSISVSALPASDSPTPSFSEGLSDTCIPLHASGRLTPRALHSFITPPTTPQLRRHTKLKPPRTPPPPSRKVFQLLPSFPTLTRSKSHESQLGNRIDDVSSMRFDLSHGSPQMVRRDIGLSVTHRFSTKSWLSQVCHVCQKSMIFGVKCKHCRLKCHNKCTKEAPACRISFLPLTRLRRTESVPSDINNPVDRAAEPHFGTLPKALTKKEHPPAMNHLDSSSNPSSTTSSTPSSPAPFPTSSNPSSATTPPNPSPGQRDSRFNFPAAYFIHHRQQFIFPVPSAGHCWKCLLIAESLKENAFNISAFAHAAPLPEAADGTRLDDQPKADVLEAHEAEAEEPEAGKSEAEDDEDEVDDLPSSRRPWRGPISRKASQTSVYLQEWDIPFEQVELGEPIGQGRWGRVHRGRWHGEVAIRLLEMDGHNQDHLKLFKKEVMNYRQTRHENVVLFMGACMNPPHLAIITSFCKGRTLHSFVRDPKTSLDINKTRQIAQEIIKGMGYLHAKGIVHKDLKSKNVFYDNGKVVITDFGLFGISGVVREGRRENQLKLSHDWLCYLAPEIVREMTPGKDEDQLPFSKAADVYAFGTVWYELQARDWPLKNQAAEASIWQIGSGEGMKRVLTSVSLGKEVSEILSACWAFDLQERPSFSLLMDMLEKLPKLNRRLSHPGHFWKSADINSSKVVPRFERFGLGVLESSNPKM
UniProt Q9HBH9, sequence (whole entry, looked up): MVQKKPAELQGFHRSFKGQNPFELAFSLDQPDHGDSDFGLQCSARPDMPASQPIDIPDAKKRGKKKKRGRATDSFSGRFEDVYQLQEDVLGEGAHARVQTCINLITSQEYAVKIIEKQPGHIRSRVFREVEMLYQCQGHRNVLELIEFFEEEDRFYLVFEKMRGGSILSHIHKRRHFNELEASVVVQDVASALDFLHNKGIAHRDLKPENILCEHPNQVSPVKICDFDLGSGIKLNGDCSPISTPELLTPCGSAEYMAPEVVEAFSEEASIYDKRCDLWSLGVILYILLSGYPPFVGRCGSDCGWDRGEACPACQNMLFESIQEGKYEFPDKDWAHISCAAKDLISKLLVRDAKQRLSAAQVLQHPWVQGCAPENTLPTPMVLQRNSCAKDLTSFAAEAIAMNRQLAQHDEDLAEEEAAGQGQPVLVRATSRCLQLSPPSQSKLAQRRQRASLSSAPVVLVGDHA

Compound | target or system | test | test system | setting | scale | quantity | value
CC(C)CCCCCCCCC/C=C/C(=O)N[C@@H](CC(=O)O)C(=O)N[C@H]1CNC(=O)[C@@H]2CCCN2C(=O)[C@H](C(C)C)NC(=O)[C@@H](CN)NC(=O)CNC(=O)[C@H](CC(=O)O)NC(=O)CNC(=O)[C@H](CC(=O)O)NC(=O)[C@H](CC(=O)O)NC(=O)[C@H]2CCCCN2C1=O | Staphylococcus simulans | broth microdilution | 22, Mueller-Hinton broth, Mg2+ 10 mg/L | 16 h, 30 °C, together with: Ca2+ 1.0 mM |  | MIC | 8 µg/mL
CN(C)[C@H]1C[C@@]23CC[C@@]4(O2)C(=CC[C@]2(C)[C@@H](c5ccc6ccncc6c5)CC[C@H]24)C=C3[C@@H](O)[C@@H]1O | KSR1 (Homo sapiens, UniProt Q8IVT5) | ATP probe labelling, inhibitor, KiNativ profiling |  | 0.1 µM |  | inhibition | 13.9%
O=C1NC2(CC2)COc2ncc(F)cc2[C@H]2COCCN2c2ccn3ncc1c3n2 |  |  | Sprague-Dawley rat, male, serum | oral, 20 mg/kg/day, end of recovery, 4-week subacute toxicity |  | serum triglycerides | 0.69 ± 0.44 mmol/L
CC[C@H](C)[C@H](NC(=O)[C@H](CCCCN)NC(=O)[C@H](CCCCN)NC(=O)[C@H](Cc1ccccc1)NC(=O)[C@H](Cc1ccccc1)NC(=O)[C@H](CCCCN)NC(=O)[C@H](CCCCN)NC(=O)[C@H](Cc1ccccc1)NC(=O)[C@H](CCCNC(=N)N)NC(=O)[C@@H](N)CCCCN)C(=O)N[C@@H](CCCCN)C(=O)N[C@@H](CCCCN)C(=O)N[C@@H](CO)C(=O)N[C@H](C(=O)N[C@@H](CCCCN)C(=O)N[C@@H](CCCCN)C(=O)N[C@@H](CCCNC(=N)N)C(=O)N[C@H](C(=O)N[C@@H](CCCCN)C(=O)N[C@@H](CCCCN)C(=O)N[C@@H](CC(C)C)C(=O)N[C@@H](Cc1ccccc1)C(=O)N[C@@H](CCCCN)C(=O)N[C@@H](CCCCN)C(=O)N1CCC[C@H]1C(=O)N[C@@H](CCCNC(=N)N)C(=O)N[C@H](C(=O)N[C@H](C(=O)N1CCC[C@H]1C(=O)N[C@H](C(=O)N[C@@H](CO)C(=O)N[C@H](C(=O)N1CCC[C@H]1C(=O)N[C@@H](Cc1ccccc1)C(=O)O)[C@@H](C)CC)[C@@H](C)CC)[C@@H](C)CC)C(C)C)C(C)C)C(C)C | Escherichia coli | broth microdilution | ATCC 25922 | 20 h |  | MIC | 4 µg/mL
CCCCCCCC(=O)NCCCC[C@H](NC(=O)CCCCCCC)C(=O)N[C@@H](CCCCNC(=O)CCCCCCC)C(=O)NCC(=O)NCC(=O)NCC(=O)N[C@@H](CS)C(=O)N[C@@H](CCCNC(=N)N)C(=O)N[C@@H](CCCCN)C(=O)N1CCC[C@H]1C(N)=O | Candida albicans | broth microdilution | 56452, RPMI-1640 | 48 h, 30 °C |  | MIC | > 128 µM
CC[C@H](C)[C@H](NC(=O)[C@H](CCCNC(=N)N)NC(=O)[C@H](CO)NC(=O)[C@H](Cc1ccc(O)cc1)NC(=O)[C@@H](NC(=O)[C@@H](NC(=O)[C@H](C)NC(=O)CNC(=O)[C@H](CCCCN)NC(=O)[C@H](CCCCN)NC(=O)CCNC(=O)CCCCCNC(=O)[C@H](CCCNC(=N)N)NC(=O)CCCCCNC(=O)[C@H](CCCNC(=N)N)NC(=O)[C@H](CCCNC(=N)N)NC(=O)CCCCCNC(=O)[C@H](CCCNC(=N)N)NC(=O)[C@H](CCCNC(=N)N)NC(=O)CCCCCNC(=O)[C@H](CCCNC(=N)N)NC(=O)[C@H](CCCNC(=N)N)NC(=O)CCCCCNC(=O)[C@@H](N)CCCNC(=N)N)C(C)C)[C@@H](C)O)C(=O)N[C@@H](CO)C(=O)NCC(=O)N[C@@H](CCC(N)=O)C(=O)N[C@@H](Cc1ccc(O)cc1)C(=O)N[C@@H](CCCCN)C(=O)O | Escherichia coli |  | ATCC 25922, Mueller-Hinton broth | together with: MgCl2 1 mM |  | MIC | 12 µM
CC(=O)N[C@@H](CC(C)C)C(=O)N[C@H]1CSSC[C@@H](C(=O)N2CCC[C@H]2C(N)=O)NC(=O)[C@H]([C@@H](C)O)NC(=O)[C@H](C(C)C)NC(=O)[C@H]([C@@H](C)O)NC(=O)CNC(=O)[C@H](CC(C)C)NC(=O)[C@H](Cc2ccccc2)NC(=O)[C@H](Cc2ccc(O)cc2)NC(=O)[C@H](CC(C)C)NC(=O)[C@H](CCCCN)NC(=O)[C@H](Cc2ccccc2)NC(=O)[C@H](CCCNC(=N)N)NC(=O)[C@H](CCC(N)=O)NC(=O)[C@H](CC(C)C)NC(=O)[C@H](CCCCN)NC(=O)[C@@H]2CCCN2C(=O)[C@H](CCCCN)NC(=O)[C@H](C(C)C)NC(=O)[C@H](CC(N)=O)NC(=O)[C@H](Cc2ccc(O)cc2)NC(=O)[C@H]([C@@H](C)O)NC1=O | Aeromonas hydrophila | broth dilution |  | 24 h |  | MIC | 5 to 10 µM
CN[C@H](CC(C)C)C(=O)N[C@H]1C(=O)N[C@@H](CC(N)=O)C(=O)N[C@H]2C(=O)N[C@H]3C(=O)N[C@H](C(=O)N[C@H](C(=O)O)c4cc(O)cc(O)c4-c4cc3ccc4O)[C@H](O)c3ccc(c(Cl)c3)Oc3cc2cc(c3O[C@@H]2O[C@H](CO)[C@@H](O)[C@H](O)[C@H]2O[C@H]2C[C@](C)(NCc3ccc(OCc4cn(CCCCC(=O)N[C@H](C(=O)N[C@@H](CCN)C(=O)N[C@H]5CCNC(=O)[C@H]([C@@H](C)O)NC(=O)[C@H](CCN)NC(=O)[C@H](CCN)NC(=O)[C@H](CC(C)C)NC(=O)[C@@H](CC(C)C)NC(=O)[C@H](CCN)NC5=O)[C@@H](C)O)nn4)c(OC)c3)[C@H](O)[C@H](C)O2)Oc2ccc(cc2Cl)[C@H]1O | Staphylococcus simulans | broth microdilution | 22, cation-adjusted Mueller-Hinton broth |  |  | MIC | 0.006 µM
CC[C@H](C)[C@H](NC(=O)[C@H](CO)NC(=O)[C@H](Cc1ccc(O)cc1)NC(=O)[C@H](Cc1ccc(O)cc1)NC(=O)[C@H](CC(N)=O)NC(=O)CNC(=O)[C@H](CO)NC(=O)[C@H](Cc1ccc(O)cc1)NC(=O)[C@H](CO)NC(=O)[C@H](CO)NC(=O)[C@H](CC(N)=O)NC(=O)COCCOCCNC(=O)CN1CCN(CC(=O)O)CCN(CC(=O)O)CCN(CC(=O)O)CC1)C(=O)N[C@@H](CC(C)C)C(N)=O [copper-64 labelled] |  | dynamic PET | mouse, tamoxifen-induced PDAC, tumor | intravenous, 0.1 µg/mouse, 7.5 min |  | tumour uptake | 12 %ID/mL
CCCCCCCC(=O)NCCCC[C@H](NC(=O)CCCCCCC)C(=O)N[C@@H](CCCCNC(=O)CCCCCCC)C(=O)NCC(=O)NCC(=O)NCC(=O)N[C@@H](CS)C(=O)N[C@@H](CCCNC(=N)N)C(=O)N[C@@H](CCCCN)C(=O)N1CCC[C@H]1C(=O)N[C@@H](CS)C(=O)N[C@@H](CCCNC(=N)N)C(=O)N[C@@H](CCCCN)C(=O)N1CCC[C@H]1C(=O)N[C@@H](CS)C(=O)N[C@@H](CCCNC(=N)N)C(=O)N[C@@H](CCCCN)C(=O)N1CCC[C@H]1C(N)=O | Candida albicans | broth microdilution | SP 3931, RPMI-1640 | 48 h, 30 °C |  | MIC | 16 µM
CC(C)CCCCCCCCC/C=C/C(=O)N[C@@H](CC(N)=O)C(=O)N[C@H]1CNC(=O)[C@@H]2CCCN2C(=O)[C@H](C(C)C)NC(=O)[C@@H](CN)NC(=O)CNC(=O)[C@H](CC(=O)O)NC(=O)CNC(=O)[C@H](CC(=O)O)NC(=O)[C@H](CC(=O)O)NC(=O)[C@H]2CCCCN2C1=O | Staphylococcus simulans | broth microdilution | 22, Mueller-Hinton broth, Mg2+ 10 mg/L | 16 h, 30 °C, together with: Ca2+ 10 mM |  | MIC | 1 µg/mL
COc1ccccc1-c1n[nH]c2nc(N[C@H]3CC[C@H](NS(=O)(=O)CC(C)C)CC3)ncc12 |  | bead binding, competition bead pull-down, measured: LINJ.25.2450 | Leishmania donovani extract | 10 µM | relative to: vehicle | relative abundance | 1.08
CC[C@H](C)[C@H](N)C(=O)N[C@@H](CCCNC(=N)N)C(=O)N[C@H](C(=O)N[C@@H](Cc1c[nH]c2ccccc12)C(=O)N[C@@H](CCCCN)C(=O)N[C@@H](CCCCN)C(=O)N[C@H](C(=O)N[C@H](C(=O)N[C@@H](CCCNC(=N)N)C(=O)N[C@@H](CCCCN)C(=O)N[C@@H](CCSC)C(=O)N[C@@H](CCCCN)C(=O)N[C@@H](C)C(=O)N[C@H](C(=O)N[C@@H](Cc1ccc(O)cc1)C(=O)N[C@@H](Cc1c[nH]cn1)C(N)=O)[C@@H](C)CC)C(C)C)[C@@H](C)CC)C(C)C | Listeria monocytogenes | broth dilution | KCTC 13064 |  |  | MIC | 100 µM
CC(C)(C)C(=O)OCOP(=O)(OCOC(=O)C(C)(C)C)C1CCCN(O)C1=O (stereo not drawn) | NCI-H460 |  |  |  |  | log LC50 | > -4 log M
CC(C)[C@H]1NC(=O)C[C@H]2/C=C/CCSSC[C@@H](NC1=O)C(=O)N[C@H](Cc1cccc3ccccc13)C(=O)NCC(=O)O2 | MKNK2 (Homo sapiens, UniProt Q9HBH9) | enzyme activity, inhibitor |  | 10 µM |  | inhibition | 0.7%
C=C(NC(=O)c1csc(-c2nc3c(cc2O)-c2nc(cs2)C(=O)NC(C(C)O)C(=O)NC(=C(C)OC)c2nc(cs2)C(=O)NC2c4nc(cs4)C(=O)NC(COC(=O)c4c5c6c(cccc6n4O)COC(=O)C(OC4CC(C)(O)C(N(C)C)C(C)O4)C2OC5)c2nc-3cs2)n1)C(N)=O (stereo not drawn) | Staphylococcus aureus |  | MRSA strain 4 |  |  | MIC | 0.0156 µg/mL
O=[N+]([O-])c1ccc(C2=[N+]([O-])c3ccccc3N3CCCN=C23)cc1 | Fusobacterium nucleatum |  |  |  |  | MIC | 0.06 to 0.125 µg/mL
CCCCCCCCCCCC(=O)NCCCC[C@H](NC(=O)CCCCCCCCCCC)C(=O)N[C@@H](CCCCNC(=O)CCCCCCCCCCC)C(=O)NCC(=O)NCC(=O)NCC(=O)N[C@@H](CS)C(=O)N[C@@H](CCCNC(=N)N)C(=O)N[C@@H](CCCCN)C(=O)N1CCC[C@H]1C(=O)N[C@@H](CS)C(=O)N[C@@H](CCCNC(=N)N)C(=O)N[C@@H](CCCCN)C(=O)N1CCC[C@H]1C(N)=O | Candida albicans | broth microdilution | SP 3903, RPMI-1640 | 48 h, 30 °C |  | MIC | > 128 µM
COc1ccccc1-c1n[nH]c2nc(NC3CCN(C(=O)Cc4ccc(F)cc4F)CC3)ncc12 |  | bead binding, competition bead pull-down, measured: LINJ.36.1700 | Leishmania donovani extract | 10 µM | relative to: vehicle | relative abundance | 0.88
CCCCCC(=O)NCCCC[C@H](NC(=O)CCCCC)C(=O)N[C@@H](CCCCNC(=O)CCCCC)C(=O)NCC(=O)NCC(=O)NCC(=O)N[C@@H](CS)C(=O)N[C@@H](CCCNC(=N)N)C(=O)N[C@@H](CCCCN)C(=O)N1CCC[C@H]1C(=O)N[C@@H](CS)C(=O)N[C@@H](CCCNC(=N)N)C(=O)N[C@@H](CCCCN)C(=O)N1CCC[C@H]1C(N)=O | Candida albicans | broth microdilution | fluconazole-resistant 56214, RPMI-1640 | 48 h, 30 °C |  | MIC | 16 µM
CC[C@H](C)[C@H](N)C(=O)NCC(=O)N[C@@H](CC(C)C)C(=O)N[C@H](CCC(=O)O)C(=O)N[C@H](C(=O)N[C@H]1CCCCNC(=O)[C@H](CC(N)=O)NC(=O)[C@@H](CC(=O)O)NC(=O)[C@H](Cc2c[nH]cn2)NC(=O)[C@@H](Cc2ccccc2)NC(=O)[C@H]([C@@H](C)CC)NC(=O)[C@@H](CCCN)NC1=O)[C@@H](C)CC | Staphylococcus simulans |  | 22 | 18 h, 37 °C, 0.3 mM ZnSO4 LB |  | MIC | > 64 µg/mL

A few entries again:
Compound | target or system | test | test system | setting | scale | quantity | value
CC(C)CCCCCCCCC/C=C/C(=O)N[C@@H](CC(=O)O)C(=O)N[C@H]1CNC(=O)[C@@H]2CCCN2C(=O)[C@H](C(C)C)NC(=O)[C@@H](CN)NC(=O)CNC(=O)[C@H](CC(=O)O)NC(=O)CNC(=O)[C@H](CC(=O)O)NC(=O)[C@H](CC(=O)O)NC(=O)[C@H]2CCCCN2C1=O | Staphylococcus simulans | broth microdilution | 22, Mueller-Hinton broth, Mg2+ 10 mg/L | 16 h, 30 °C, together with: Ca2+ 1.0 mM |  | MIC | 8 µg/mL
